# Experimental data collected from several papers.
# pEC50, pIC50: −log10 of the molar value.
# HDAC8: Histone deacetylase 8 (HDAC8, Homo sapiens, UniProt Q9BY41)
# Sequence of UniProt Q9BY41 (whole entry, looked up): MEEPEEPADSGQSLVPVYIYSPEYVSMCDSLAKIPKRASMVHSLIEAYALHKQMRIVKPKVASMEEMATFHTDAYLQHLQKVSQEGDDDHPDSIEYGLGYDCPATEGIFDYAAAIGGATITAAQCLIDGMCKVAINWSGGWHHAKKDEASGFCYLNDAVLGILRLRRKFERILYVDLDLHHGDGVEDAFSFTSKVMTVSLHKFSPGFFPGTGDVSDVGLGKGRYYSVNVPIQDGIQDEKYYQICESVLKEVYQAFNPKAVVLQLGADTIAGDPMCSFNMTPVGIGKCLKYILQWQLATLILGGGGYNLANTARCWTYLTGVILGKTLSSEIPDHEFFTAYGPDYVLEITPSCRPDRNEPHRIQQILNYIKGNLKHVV
# Sequence of UniProt P10721 (whole entry, looked up): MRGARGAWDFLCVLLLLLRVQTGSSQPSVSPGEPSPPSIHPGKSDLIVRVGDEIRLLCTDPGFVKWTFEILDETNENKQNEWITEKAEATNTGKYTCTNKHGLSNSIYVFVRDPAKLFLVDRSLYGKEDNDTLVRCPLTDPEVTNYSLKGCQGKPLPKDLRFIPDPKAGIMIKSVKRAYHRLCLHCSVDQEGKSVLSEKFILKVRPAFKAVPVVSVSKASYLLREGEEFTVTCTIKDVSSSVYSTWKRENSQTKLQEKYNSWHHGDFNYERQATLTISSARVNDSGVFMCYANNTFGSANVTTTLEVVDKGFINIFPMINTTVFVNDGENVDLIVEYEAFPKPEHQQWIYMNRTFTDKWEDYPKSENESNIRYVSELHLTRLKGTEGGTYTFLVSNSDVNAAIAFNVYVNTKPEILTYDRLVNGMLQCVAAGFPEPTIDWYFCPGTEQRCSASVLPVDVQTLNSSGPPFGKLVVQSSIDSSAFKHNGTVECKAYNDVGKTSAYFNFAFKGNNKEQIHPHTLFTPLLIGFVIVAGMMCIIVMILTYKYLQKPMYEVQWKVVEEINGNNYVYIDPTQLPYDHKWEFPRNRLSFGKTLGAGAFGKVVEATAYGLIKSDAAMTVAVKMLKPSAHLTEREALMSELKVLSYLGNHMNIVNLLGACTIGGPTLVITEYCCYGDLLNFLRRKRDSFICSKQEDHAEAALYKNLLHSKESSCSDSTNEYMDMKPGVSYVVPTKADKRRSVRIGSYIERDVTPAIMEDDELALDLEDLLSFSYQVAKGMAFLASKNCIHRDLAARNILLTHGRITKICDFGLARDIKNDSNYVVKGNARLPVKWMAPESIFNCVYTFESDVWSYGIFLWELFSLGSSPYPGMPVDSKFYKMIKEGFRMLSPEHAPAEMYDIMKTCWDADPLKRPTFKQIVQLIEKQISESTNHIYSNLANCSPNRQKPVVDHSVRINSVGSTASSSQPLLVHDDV
# Sequence of UniProt P34947 (whole entry, looked up): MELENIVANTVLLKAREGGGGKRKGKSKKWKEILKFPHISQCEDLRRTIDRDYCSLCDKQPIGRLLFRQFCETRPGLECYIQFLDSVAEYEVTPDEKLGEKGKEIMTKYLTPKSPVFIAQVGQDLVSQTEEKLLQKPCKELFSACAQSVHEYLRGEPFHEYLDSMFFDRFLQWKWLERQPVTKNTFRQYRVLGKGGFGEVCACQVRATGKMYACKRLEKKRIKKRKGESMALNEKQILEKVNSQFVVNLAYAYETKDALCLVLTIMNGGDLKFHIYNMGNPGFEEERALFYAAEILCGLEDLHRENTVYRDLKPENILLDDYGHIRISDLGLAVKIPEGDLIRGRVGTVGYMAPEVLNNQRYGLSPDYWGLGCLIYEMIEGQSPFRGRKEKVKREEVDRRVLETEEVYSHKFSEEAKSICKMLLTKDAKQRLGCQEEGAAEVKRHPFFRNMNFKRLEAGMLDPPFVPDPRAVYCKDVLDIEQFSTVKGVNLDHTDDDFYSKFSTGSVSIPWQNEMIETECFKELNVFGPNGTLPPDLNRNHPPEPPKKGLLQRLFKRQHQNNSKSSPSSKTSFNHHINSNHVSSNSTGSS
Compound,tested on,test,test system,conditions,endpoint,value
CC(C)c1ccc(OS(=O)(=O)Oc2cccc(C(=O)NO)c2)cc1,HDAC8,"enzyme activity, inhibitor, fluorescence",,,pIC50,5.90
COc1ccc2nc3cc(Cl)ccc3c(Nc3ccc(C(=O)O)cc3)c2c1,HEK293,cell growth or viability,,,pIC50,< 5.00
O=C(C=Cc1ccccc1)Nc1ccc(Oc2nnc(-c3ccc(Cl)cc3)c3ccccc23)cc1,MCF7,"cell growth or viability, MTT",,5 µM,cell death,91.6%
Nc1ncnc2c1c(/C=C/C(=O)N1CCC(CCO)CC1)nn2CC1CCCC1,FLO-1,"cell growth or viability, resazurin",,5 days,pEC50,< 4.52
COc1cc(-c2cncc3c2CN(C)Cc2cc(N4CCNCC4)ccc2-3)cc(OC)c1OC,"GRK5 (Homo sapiens, UniProt P34947)","enzyme activity, inhibitor",,1 µM,remaining activity,108%
CNc1ncc2c(/C=C/C(=O)N3CCC(OC)CC3)nn(C(C)C)c2n1,FLO-1,"cell growth or viability, resazurin",,5 days,pEC50,4.63
Cc1c(Cc2ccccc2)c(=O)oc2c(C)c(OCC(=O)NN=Cc3ccccc3)ccc12,PC-3,"cell growth or viability, MTT",,1000 µg/mL,viability,7.28%
Cc1cccc(-c2nn3c(c2-c2ccnc4ccc(C(N)=O)cc24)CCC3)n1,MB002,cell growth or viability,,7 days,pIC50,< 5.00
COc1cccc(Cn2nc(-c3ccc(CO)o3)c3ccccc32)c1,RBE,"cell growth or viability, ATP luminescence",,"46 µM, 72 h",inhibition,76%
Cc1[nH]c2cc(F)ccc2c(=O)c1Cc1ccc(Cl)cc1.Cc1[nH]c2cccc(F)c2c(=O)c1Cc1ccc(Cl)cc1,HEK293,cell growth or viability,,,pIC50,< 5.00
C[C@@H]1CC[C@@H]([C@](O)(CNCc2ccccc2)COCc2ccccc2)[C@H](OCc2ccccc2)C1,HeLa,"cell growth or viability, MTT",,"30 µM, 72 h",inhibition,98.7%
CC(=NNC(=O)c1ccccc1)c1ccc(Nc2nnc(-c3ccc(Cl)cc3)c3ccccc23)cc1,MCF7,"cell growth or viability, MTT",,"10 µM, 24 h",viability,5.89%
CCCN(O)N=Nc1ccc(S(=O)(=O)Nc2onc(C)c2C)cc1,,ABTS scavenging,,20 µg/mL,inhibition,16%
CCC(=CCc1c(O)cc2c(c1O)C(=O)CC(c1ccc(O)cc1)O2)CC (stereo in doubt),HeLa,"cell growth or viability, MTT",,"3.125 µM, 48 h",inhibition,7.2%
COc1ccccc1CNC[C@@](C)(O)[C@@H]1CC[C@@H](C)C[C@H]1OCc1ccccc1,HeLa,"cell growth or viability, MTT",,"10 µM, 72 h",inhibition,81.8%
Cc1[nH]c(C)c(-c2ccc(Nc3ccc(C(F)(F)F)cn3)cc2)c(=O)c1Br,HEK293,cell growth or viability,,,pIC50,< 5.00
CC(=NNC(N)=S)c1ccc(Nc2nnc(-c3ccc(Cl)cc3)c3ccccc23)cc1,MCF7,"cell growth or viability, MTT",,2.5 µM,cell death,90.9%
OCc1ccc(-c2nn(Cc3cccnc3)c3cccnc23)o1,RBE,"cell growth or viability, ATP luminescence",,"46 µM, 72 h",inhibition,80%
Cc1ccc(N(O)N=Nc2ccc(S(=O)(=O)Nc3cc(C)on3)cc2)cc1,,ABTS scavenging,,60 µg/mL,inhibition,27.7%
CC(=NNC(=O)c1ccncc1)c1ccc(Nc2nnc(-c3ccc(Cl)cc3)c3ccccc23)cc1,MCF7,"cell growth or viability, MTT",,"0.156 µM, 24 h",viability,24.6%
Cc1ccc(C(CS(=O)(=O)c2ccccc2)=NNC2=NC(=O)C(=NNc3ccccc3)S2)cc1,WM 266-4,"cell growth or viability, MTT",,"0.4 µM, 48 h",viability,65.5%
C=CC(=O)N1CCC(COCC(=O)N2CCN(c3nc(-c4cnc(N)nc4C(F)F)nc(N4CCOC[C@@H]4C)n3)CC2)CC1,"KIT (Homo sapiens, UniProt P10721)","binding, competition with immobilised ligand",,1 µM,remaining binding,96%
Cc1c(Cc2ccccc2)c(=O)oc2c(C)c(OCC(=O)NN=Cc3ccc(Cl)cc3)ccc12,PC-3,"cell growth or viability, MTT",,62.5 µg/mL,viability,48%
CC(=O)Nc1ccc(Oc2nnc(-c3ccc(Cl)cc3)c3ccccc23)cc1,MCF7,"cell growth or viability, MTT",,"0.312 µM, 24 h",viability,15.6%
Cc1cc(OS(=O)(=O)Oc2ccc(Oc3ccccc3)cc2)cc(C(=O)NO)c1,HDAC8,"enzyme activity, inhibitor, fluorescence",,,pIC50,5.33
CCc1c(C)c2ccc(OCC(=O)NN=Cc3ccc([N+](=O)[O-])cc3)cc2oc1=O,PC-3,"cell growth or viability, MTT",,1000 µg/mL,viability,3.03%
CN(Cc1ccc(C2(C(F)(F)F)CC2)cc1)Cc1cccc2ccccc12,Trichophyton rubrum,"microbial growth, disc diffusion",ATCC28188,"0.512 µg/mL, 6 days",inhibition zone,≥ 55 mm
O=C(Nc1ccccc1)Nc1ccc(Oc2nnc(-c3ccc(Cl)cc3)c3ccccc23)cc1,MCF7,"cell growth or viability, MTT",,"5 µM, 24 h",viability,3.19%
CNc1ncc2c(/C=C/C(=O)N3CCCCC3)nn(CC3CCCC3)c2n1,FLO-1,"cell growth or viability, resazurin",,5 days,pEC50,5.00
CC(=NNC(=O)c1ccccc1Cl)c1ccc(Nc2nnc(-c3ccc(Cl)cc3)c3ccccc23)cc1,MCF7,"cell growth or viability, MTT",,0.312 µM,cell death,0.0885%
Cc1[nH]c(C)c(-c2ccc(OCCOc3ccc(C(F)(F)F)cn3)cc2)c(=O)c1Br,HEK293,cell growth or viability,,,pIC50,< 5.00

# For quick reference, copied from above:
Compound,tested on,test,test system,conditions,endpoint,value
Cc1c(Cc2ccccc2)c(=O)oc2c(C)c(OCC(=O)NN=Cc3ccc(Cl)cc3)ccc12,PC-3,"cell growth or viability, MTT",,62.5 µg/mL,viability,48%
CNc1ncc2c(/C=C/C(=O)N3CCC(OC)CC3)nn(C(C)C)c2n1,FLO-1,"cell growth or viability, resazurin",,5 days,pEC50,4.63
